{"data": "Assay results collected from several papers", "note": "Numbered parts are unrelated; each lists some results of a single study."}
{"data": "Set 1", "target": "Interferon regulatory factor 7, full length, phosphomimetic (IRF7, Homo sapiens, UniProt Q92985, residues 1-503, S471D/S472D/S475D/S476D/S477D/S483D/S484D/S487D)", "method": "protein-binding microarray", "form": "double-stranded DNA, one strand shown", "sample": "in vitro", "tested at": "2200 nM top", "setting": "60-bp whole probe", "added": "salmon DNA 0.4 mg/ml", "reference": "random background probes", "reading": "higher = stronger binding", "constant ends, left off below": "GCCTAGCAC … GTCTTGATTCGCTTGACGCTGCTG", "sequence of UniProt Q92985 (whole entry, unmodified, looked up)": "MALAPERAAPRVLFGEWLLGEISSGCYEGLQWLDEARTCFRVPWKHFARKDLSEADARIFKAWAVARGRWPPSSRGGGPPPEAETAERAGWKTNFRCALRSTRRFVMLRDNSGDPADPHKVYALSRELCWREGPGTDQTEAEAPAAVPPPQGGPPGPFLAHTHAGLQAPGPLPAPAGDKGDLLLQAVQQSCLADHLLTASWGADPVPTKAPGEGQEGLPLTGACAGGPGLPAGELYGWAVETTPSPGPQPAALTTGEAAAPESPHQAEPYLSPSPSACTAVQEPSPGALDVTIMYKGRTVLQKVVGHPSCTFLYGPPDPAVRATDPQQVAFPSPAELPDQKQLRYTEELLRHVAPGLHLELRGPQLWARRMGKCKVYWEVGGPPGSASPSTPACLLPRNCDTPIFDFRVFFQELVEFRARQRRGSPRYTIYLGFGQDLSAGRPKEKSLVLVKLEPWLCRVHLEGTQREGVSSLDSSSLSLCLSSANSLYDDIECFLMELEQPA"}
{"Oligonucleotide": "TTAGGTATCGTACTGCTTTAGTGCTAG", "fitted relative affinity": "0.771 z-score"}
{"Oligonucleotide": "TCACCTATCCAAGTTCCCACTGTGCTA", "fitted relative affinity": "1.98 z-score"}
{"Oligonucleotide": "ATAGATCTCAGTTTCGATTAGTGCTAG", "fitted relative affinity": "6.33 z-score"}
{"Oligonucleotide": "GACGGACTGGGTCTCGGCACGTGCTAG", "fitted relative affinity": "-0.756 z-score"}
{"Oligonucleotide": "TTCGGACTGGGGTATCGGTTAGTGCTA", "fitted relative affinity": "-0.147 z-score"}
{"Oligonucleotide": "GACGGTATCCTTTTCCTGCCGTGCTAG", "fitted relative affinity": "1.24 z-score"}
{"Oligonucleotide": "GTCGGTTTCCTTCTCCTGACGTGCTAG", "fitted relative affinity": "4.27 z-score"}
{"Oligonucleotide": "TTAGATTCCAGTTTCAATTAGTGCTAG", "fitted relative affinity": "1.97 z-score"}
{"Oligonucleotide": "AACGGTCTCGGACTGGGGACGTGCTAG", "fitted relative affinity": "-0.405 z-score"}
{"Oligonucleotide": "GGACCGACCCCTCCATCCCTGTGCTAG", "fitted relative affinity": "-0.381 z-score"}
{"Oligonucleotide": "TCAGGTTTCGACTATCGGTTAGTGCTA", "fitted relative affinity": "3.83 z-score"}
{"Oligonucleotide": "GACGTTTTCAGTATCGAGACGTGCTAG", "fitted relative affinity": "2.37 z-score"}
{"Oligonucleotide": "TTAGATTCTAGTTTCGATTAGTGCTAG", "fitted relative affinity": "7.4 z-score"}
{"Oligonucleotide": "CTCTTCTTTTTTTTCTTTAAGTGCTAG", "fitted relative affinity": "2.41 z-score"}
{"Oligonucleotide": "TTAAGACTGCTTATCCTTTAGTGCTAG", "fitted relative affinity": "0.383 z-score"}
{"Oligonucleotide": "GACGATTCCAGACTGGAGACGTGCTAG", "fitted relative affinity": "0.173 z-score"}
{"Oligonucleotide": "TTAGATTTCGGGTATCGATTAGTGCTA", "fitted relative affinity": "2.77 z-score"}
{"Oligonucleotide": "TTAGGACTGGACGTTCGGTTAGTGCTA", "fitted relative affinity": "0.00761 z-score"}
{"Oligonucleotide": "GACGAACTGAGTTTGGAGACGTGCTAG", "fitted relative affinity": "-0.276 z-score"}
{"Oligonucleotide": "TTAGATTTCAGATTCGATTAGTGCTAG", "fitted relative affinity": "2.53 z-score"}
{"Oligonucleotide": "TTAGGTATCTGTCTCGGTTAGTGCTAG", "fitted relative affinity": "0.847 z-score"}
{"Oligonucleotide": "TCATTTTTCCCTCTGGAAAAGTGCTAG", "fitted relative affinity": "2.35 z-score"}
{"Oligonucleotide": "TTAGGTTGCGGGACTGGGTTAGTGCTA", "fitted relative affinity": "-0.33 z-score"}
{"Oligonucleotide": "TATGCTTTCTTTAACTCATTGTGCTAG", "fitted relative affinity": "1.48 z-score"}
{"Oligonucleotide": "TCAGTTTTCTCATTCGTACTGTGCTAG", "fitted relative affinity": "3.81 z-score"}
{"data": "Set 2", "target": "Prothrombin, mature alpha-thrombin (F2, Homo sapiens, UniProt P00734)", "method": "aptamer microarray, sandwich", "form": "DNA with 2'F-ANA", "sample": "in vitro", "tested at": "200 nM", "setting": "whole 15-mer aptamer, many near background", "added": "Cy3 exosite-II aptamer, 400 nM", "reading": "higher = stronger binding", "oligonucleotide": "GGTTGGTGTGGTTGG"}
{"Modification": "2'F-ANA at 1 2 5 6 7 8 11 12 14", "mean fluorescence intensity [a.u.]": 53.6}
{"Modification": "2'F-ANA at 4 5 6 8 11 12 13 15", "mean fluorescence intensity [a.u.]": 74.9}
{"Modification": "2'F-ANA at 1 2 3 5 8 9 11 12 13 14 15", "mean fluorescence intensity [a.u.]": 50.2}
{"Modification": "2'F-ANA at 3 5 6 7 8 9 11 15", "mean fluorescence intensity [a.u.]": 100}
{"Modification": "2'F-ANA at 3 6 7 10 12 15", "mean fluorescence intensity [a.u.]": 609}
{"Modification": "2'F-ANA at 2 4 7 8 10 11 12 14", "mean fluorescence intensity [a.u.]": 147}
{"Modification": "2'F-ANA at 3 4 5 6 8 9 12", "mean fluorescence intensity [a.u.]": 214}
{"Modification": "2'F-ANA at 4 7 11 12", "mean fluorescence intensity [a.u.]": 582}
{"Modification": "2'F-ANA at 1 5 6 8 14 15", "mean fluorescence intensity [a.u.]": 47.7}
{"Modification": "2'F-ANA at 2 3 4 5 11 13 14 15", "mean fluorescence intensity [a.u.]": 87.9}
{"Modification": "2'F-ANA at 2 6 7 10 13 14 15", "mean fluorescence intensity [a.u.]": 84.3}
{"Modification": "2'F-ANA at 1 3 4 5 8 10", "mean fluorescence intensity [a.u.]": 101}
{"Modification": "2'F-ANA at 3 4 8 9 11", "mean fluorescence intensity [a.u.]": 563}
{"Modification": "2'F-ANA at 7 9 10 14", "mean fluorescence intensity [a.u.]": 118}
{"Modification": "2'F-ANA at 1 3 4 5 6 7 9 12 14", "mean fluorescence intensity [a.u.]": 53.3}
{"Modification": "2'F-ANA at 3 6 7 8 9 10", "mean fluorescence intensity [a.u.]": 517}
{"data": "Set 3", "target": "Histone acetyltransferase KAT6A, winged helix 1, GST fusion (KAT6A, Homo sapiens, UniProt Q92794, residues 1-85)", "method": "protein binding microarray", "form": "double-stranded DNA, one strand shown", "sample": "in vitro", "tested at": "not given", "setting": "8-mer, flanks averaged, mean of 2 arrays, mostly near background", "reference": "not given", "reading": "higher = stronger binding", "Construct (chain)": "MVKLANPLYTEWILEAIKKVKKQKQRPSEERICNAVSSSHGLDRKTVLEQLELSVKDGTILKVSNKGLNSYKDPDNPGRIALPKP"}
{"Oligonucleotide": "AAAAGAAA", "E-score": -0.242}
{"Oligonucleotide": "CAGTGCAA", "E-score": -0.196}
{"Oligonucleotide": "AAAGGGCC", "E-score": 0.0567}
{"Oligonucleotide": "AGGGTCGA", "E-score": -0.00759}
{"Oligonucleotide": "TGATTTAA", "E-score": -0.0847}
{"Oligonucleotide": "ACACATAC", "E-score": -0.258}
{"Oligonucleotide": "CTGAACAA", "E-score": -0.00625}
{"Oligonucleotide": "CGGATATA", "E-score": 0.147}
{"Oligonucleotide": "CTACTTAA", "E-score": -0.164}
{"Oligonucleotide": "ACTCTACG", "E-score": -0.148}
{"Oligonucleotide": "ATTATATC", "E-score": -0.0737}
{"Oligonucleotide": "GTCCGGGA", "E-score": 0.0699}
{"Oligonucleotide": "GCTCAAAA", "E-score": -0.0431}
{"Oligonucleotide": "ATTTGACA", "E-score": -0.17}
{"Oligonucleotide": "CGCAATTA", "E-score": 0.297}
{"Oligonucleotide": "CATTGTGA", "E-score": -0.237}
{"Oligonucleotide": "CCGAACCG", "E-score": 0.267}
{"Oligonucleotide": "GTGAACTA", "E-score": -0.0872}
{"data": "Set 4", "target": "RING finger protein unkempt homolog, zinc fingers 1-6, GST-SBP tag (UNK, Homo sapiens, UniProt Q9C0B0, residues 30-357)", "method": "RNA Bind-n-Seq", "form": "RNA", "sample": "in vitro", "tested at": "not given", "setting": "RNA with constant flanks, human and mouse sites, ends assumed", "reference": "input RNA pool", "reading": "higher = stronger binding", "constant ends, left off below": "GGGAGUUCUACAGUCCGACGAUC … CAACAGAGGAUUGAGCAUCA", "sequence of UniProt Q9C0B0 (30-357, looked up)": "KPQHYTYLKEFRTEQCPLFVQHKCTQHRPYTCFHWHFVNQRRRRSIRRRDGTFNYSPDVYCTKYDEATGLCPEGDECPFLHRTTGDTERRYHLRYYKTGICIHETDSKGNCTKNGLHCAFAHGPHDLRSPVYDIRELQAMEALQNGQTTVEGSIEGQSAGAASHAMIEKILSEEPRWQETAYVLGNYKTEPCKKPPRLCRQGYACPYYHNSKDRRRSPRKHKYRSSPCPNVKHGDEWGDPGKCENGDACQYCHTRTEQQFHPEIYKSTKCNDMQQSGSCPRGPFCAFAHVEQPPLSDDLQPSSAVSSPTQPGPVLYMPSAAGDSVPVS"}
{"Oligonucleotide": "UAUGAUGAGCAUAUCAAAUCCAGAUUGAUUAAAGAUAUUCGGUUUUUCAGGGAGAUCAAGGACCAAAAUGACCACAAGUAUCCUUUUGAUAGAGCAGAAAAAUUCAAUCGUGGCAUAAGA", "bound/input enrichment": "0.499 ratio"}
{"Oligonucleotide": "UGAACUAAAGGAGUUAGCAUCUUUAUUUUUGUAUCAAAGAUAAAGGUUAUUUUGAAAAUUAUUAGGGUUUUUACAUAACUCUGGAAUCUGUUGCUUUUAUAAACAAAUUGUUCAAUUUUA", "bound/input enrichment": "17 ratio"}
{"Oligonucleotide": "AGAAAGCUACUUGAAGGAAAUUUUGCCAAAGAAGUGAGCCAUGAAAUGGAUGGACUUAUUUUUCAGCCUACUGGAAAAUACAAACCUGGUCGAUGUGAUGAUAUUUUGAAAUGGAAGCCU", "bound/input enrichment": "0.242 ratio"}
{"Oligonucleotide": "UUGCCAGGUUUCCGUGUUUGUCUCAACUGAACUCUGGGCUGAGUGUUUACCAGGGAGAAGAGAUGUGAAUUAAACAACCUUCCUGUUUAGUGUUACCUGCUUUGUACAAGAAUGAAGUGC", "bound/input enrichment": "0.6 ratio"}
{"Oligonucleotide": "CCAGGCCAGUGUGGCAGAGCAGACGGCUAUGUGCUCGAAGGCAAGGAGCUGGAGUUCUAUCUGCGGAAGAUCAAAGCCCGGAAAGGCAAAUGAGCCUCAUGUGUAGUGUAAUAAAGGUGU", "bound/input enrichment": "3.62 ratio"}
{"Oligonucleotide": "GGCAUUAAAAAAGUCAGAUCUAUUCCCAAGAACAUCACCGUUGUGUCAGGCACAGACCUGGUCCUACCCUGCCACCUCUCGUCCAAUUUGGCCCAUGCCCACUGGACCUUCGGAAGCCAG", "bound/input enrichment": "0.165 ratio"}
{"Oligonucleotide": "AGAUGCCGGGCUAAACCCCCUGGAAGGGCCUGCAGCAAUCCCUCCUUCCUUCGGUUUCAACUGGACUUCUAUCAGGUCUACUUCCUGGCCCUGGCAGCUGAUUGGCUUCAGGCCCCCUAC", "bound/input enrichment": "0.113 ratio"}
{"Oligonucleotide": "AUAAAGACCGAGCAGUACAAAACAGGUCACCACUCGCCUCGAGGACAAACGUUGGAUAGCAUAGACCCUGUGGCCAGGGGUCCCAGCCCCCUGAGUUCUCACAUCAGCCCCGGCAGCUCC", "bound/input enrichment": "0.153 ratio"}
{"Oligonucleotide": "AAAUCAUGUGUGUCAAAUAUUGAAAGUACUUUAUCUGCACUCCAAUAUGUAAGCAGCAUAGUAGUUUCUUUAGAGAAUAGGUCUGCCAUUGUGAAGUAUAAUGCAAGCUCAGUCACUCCA", "bound/input enrichment": "2.39 ratio"}
{"Oligonucleotide": "CCCAGCCCAGCCCAGUCCGCCCGCCCGCCCGCCGGCCCGCCGGCCGCGAGCGCCGCCGCCGCCGCCGCCGCCACCUCCCCCGCCGCUGGGGACAUGUCUAACCCCGGAGGCCGGAGGAAC", "bound/input enrichment": "1.32 ratio"}
{"Oligonucleotide": "ACUCCCUGGUUCUGGCCCAAAGACAAGACCAAAGUCUGGUCUAAGCCCAAAGAAGAGCCCAAUAGUAGGUCCUGGUUUAGGUCUAAGAAAGAAGUCCGUGUUGAAUCCACUUCUGGGUCU", "bound/input enrichment": "0.582 ratio"}
{"note": "Some of these lines once more (set 2):"}
{"Modification": "2'F-ANA at 4 5 6 8 11 12 13 15", "mean fluorescence intensity [a.u.]": 74.9}
{"Modification": "2'F-ANA at 1 2 3 5 8 9 11 12 13 14 15", "mean fluorescence intensity [a.u.]": 50.2}
{"Modification": "2'F-ANA at 3 5 6 7 8 9 11 15", "mean fluorescence intensity [a.u.]": 100}
{"Modification": "2'F-ANA at 3 6 7 10 12 15", "mean fluorescence intensity [a.u.]": 609}
{"Modification": "2'F-ANA at 2 4 7 8 10 11 12 14", "mean fluorescence intensity [a.u.]": 147}
{"Modification": "2'F-ANA at 3 4 5 6 8 9 12", "mean fluorescence intensity [a.u.]": 214}
